Measured values pooled from the literature.
Compare with care: the assays were run in different laboratories.

For `C=CCNc1c(O)cc2c(O)c1C[C@@H](C)C[C@H](OC)[C@H](O)[C@@H](C)/C=C(\C)[C@H](OC(N)=O)[C@@H](OC)/C=C\C=C(/C)C(=O)N2`, “patients with arthralgia TEAE” read 17% (unresectable or metastatic STS, GIST, other; intravenous, 90 mg/m^2).
Under “patients with grade ≥3 TEAE”, `O=C1Nc2cc3[nH]nc(-c4ccncc4)c3cc2CN1Cc1ccccc1` is recorded as 9% (refers to: increased ALT; patients with advanced solid tumours; intravenous, dose not given, schedules 1 and 2).
For `N[C@@H]1c2ccccc2OC12CCN(c1cnc3c(N4CCCc5ncccc54)n[nH]c3n1)CC2`, “patients with dose interruptions” read 66% (phase Ia; patients advanced metastatic solid tumours; oral, dose not given).
`C[C@@H]1OC(=O)NN=C1c1ccc(-c2ccc(F)cc2)c(C(F)(F)F)c1`: “patients with abdominal distension” 0% (patients, phase I trial; oral, 5 mg once daily, worst grade 1).
Under “patients with AE”, `CO[C@H]1C[C@@H]2CC[C@@H](C)[C@@](O)(O2)C(=O)C(=O)N2CCCC[C@H]2C(=O)O[C@H]([C@H](C)C[C@@H]2CC[C@@H](OC(=O)NCCOCCOCCOCCOCCOCCOCCOCCOCCC(=O)N3CCc4cc(Cn5nc(-c6ccc7oc(N)nc7c6)c6c(N)ncnc65)ccc4C3)[C@H](OC)C2)C[C@@H](O)[C@H](C)/C=C(\C)[C@@H](O)[C@@H](OC)C(=O)[C@H](C)C[C@H](C)/C=C/C=C/C=C/1C` is recorded as 1.8% (refers to: gastric haemorrhage leading to dose reduction; patients with advanced solid tumours; intravenous, dose not given, grade ≥3, all doses).
For `COc1c(OCCCN2CCOCC2)ccc2c1N=C(NC(=O)c1cnc(N)nc1)N1CCN=C21`, “patients with adverse event” read 80% (refers to: Hyperglycaemia; patients with advanced malignancies; intravenous, dose not given, any grade, all cohorts, with: gemcitabine).
`CN1CC[C@@H](c2c(O)cc(O)c3c(=O)cc(-c4ccc(C(F)(F)F)cc4Cl)oc23)[C@@H]1CO` — result for “patients with adverse event”: 10% (refers to: Lymphopenia; relapsed AML; oral, 200 mg, grade 3-4, intermittent dosing).
`Nc1nc2cc(-c3ccc4ncc(C(=O)N5CCOCC5)n4c3)ccc2o1`: “patients with adverse event” 20% (refers to: Hypokalemia; advanced solid tumour patients; dose not given, all grades, all doses).
`CCN(CCO)CCCC(C)Nc1ccnc2cc(Cl)ccc12` (stereo not shown): “patients with adverse event” 33% (refers to: Hypocalcemia grade 2; newly diagnosed glioblastoma patients; oral, 800 mg/dose, with radiotherapy and temozolomide).
`CC(=O)c1c(C)c2cnc(Nc3ccc(C4CCN(CCS(C)(=O)=O)CC4)cn3)nc2n(C2CCCC2)c1=O`: “patients with serious AE” 0% (HR+/HER2- advanced breast cancer patients; oral, 50 mg).

A few entries again:
For `C=CCNc1c(O)cc2c(O)c1C[C@@H](C)C[C@H](OC)[C@H](O)[C@@H](C)/C=C(\C)[C@H](OC(N)=O)[C@@H](OC)/C=C\C=C(/C)C(=O)N2`, “patients with arthralgia TEAE” read 17% (unresectable or metastatic STS, GIST, other; intravenous, 90 mg/m^2).
